Measurements from different studies.
Chain of UniProt Q8IY84 (whole entry, looked up): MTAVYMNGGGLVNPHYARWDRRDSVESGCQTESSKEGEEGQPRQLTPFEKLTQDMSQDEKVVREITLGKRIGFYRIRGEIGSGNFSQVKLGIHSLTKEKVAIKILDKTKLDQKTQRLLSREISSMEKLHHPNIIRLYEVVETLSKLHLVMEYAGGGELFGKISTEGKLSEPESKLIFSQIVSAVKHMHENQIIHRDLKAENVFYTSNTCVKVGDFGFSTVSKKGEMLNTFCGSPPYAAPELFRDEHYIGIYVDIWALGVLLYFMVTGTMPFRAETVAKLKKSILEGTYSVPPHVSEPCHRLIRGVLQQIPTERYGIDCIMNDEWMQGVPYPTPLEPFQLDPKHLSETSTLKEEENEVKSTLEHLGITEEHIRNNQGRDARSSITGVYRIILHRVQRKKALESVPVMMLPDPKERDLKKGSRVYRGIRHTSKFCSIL
Chain of UniProt Q96L34 (whole entry, looked up): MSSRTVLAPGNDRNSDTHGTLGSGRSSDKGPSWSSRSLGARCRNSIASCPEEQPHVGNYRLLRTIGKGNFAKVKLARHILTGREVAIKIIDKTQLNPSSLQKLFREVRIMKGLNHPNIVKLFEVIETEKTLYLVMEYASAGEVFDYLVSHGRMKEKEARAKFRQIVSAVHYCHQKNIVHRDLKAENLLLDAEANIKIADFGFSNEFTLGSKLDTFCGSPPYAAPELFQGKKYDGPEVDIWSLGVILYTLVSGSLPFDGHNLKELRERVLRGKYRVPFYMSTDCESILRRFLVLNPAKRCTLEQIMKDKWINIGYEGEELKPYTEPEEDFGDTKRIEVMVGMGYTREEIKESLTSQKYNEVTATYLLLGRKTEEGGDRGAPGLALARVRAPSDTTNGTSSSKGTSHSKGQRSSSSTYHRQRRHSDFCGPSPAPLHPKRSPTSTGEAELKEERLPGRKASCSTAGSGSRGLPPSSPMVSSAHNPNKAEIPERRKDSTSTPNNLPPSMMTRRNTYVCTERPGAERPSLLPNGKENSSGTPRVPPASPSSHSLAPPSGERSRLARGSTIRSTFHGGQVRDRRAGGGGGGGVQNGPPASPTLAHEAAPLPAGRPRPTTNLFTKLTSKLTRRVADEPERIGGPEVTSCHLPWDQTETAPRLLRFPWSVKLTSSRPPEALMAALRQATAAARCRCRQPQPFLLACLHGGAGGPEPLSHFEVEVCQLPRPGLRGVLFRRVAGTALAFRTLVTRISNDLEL
Chain of UniProt Q8IW41 (whole entry, looked up): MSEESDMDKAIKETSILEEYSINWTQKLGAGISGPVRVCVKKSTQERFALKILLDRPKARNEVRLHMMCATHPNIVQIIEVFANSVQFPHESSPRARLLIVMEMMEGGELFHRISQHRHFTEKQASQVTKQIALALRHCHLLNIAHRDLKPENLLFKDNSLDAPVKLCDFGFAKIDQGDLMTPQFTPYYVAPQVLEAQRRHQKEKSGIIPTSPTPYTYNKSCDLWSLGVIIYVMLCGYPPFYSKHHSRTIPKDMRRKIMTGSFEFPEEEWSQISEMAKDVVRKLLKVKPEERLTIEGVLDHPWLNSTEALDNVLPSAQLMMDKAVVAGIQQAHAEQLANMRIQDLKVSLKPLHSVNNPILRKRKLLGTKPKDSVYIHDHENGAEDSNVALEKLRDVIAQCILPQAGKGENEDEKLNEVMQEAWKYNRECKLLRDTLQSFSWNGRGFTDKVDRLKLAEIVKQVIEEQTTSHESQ
Chain of UniProt P50750 (whole entry, looked up): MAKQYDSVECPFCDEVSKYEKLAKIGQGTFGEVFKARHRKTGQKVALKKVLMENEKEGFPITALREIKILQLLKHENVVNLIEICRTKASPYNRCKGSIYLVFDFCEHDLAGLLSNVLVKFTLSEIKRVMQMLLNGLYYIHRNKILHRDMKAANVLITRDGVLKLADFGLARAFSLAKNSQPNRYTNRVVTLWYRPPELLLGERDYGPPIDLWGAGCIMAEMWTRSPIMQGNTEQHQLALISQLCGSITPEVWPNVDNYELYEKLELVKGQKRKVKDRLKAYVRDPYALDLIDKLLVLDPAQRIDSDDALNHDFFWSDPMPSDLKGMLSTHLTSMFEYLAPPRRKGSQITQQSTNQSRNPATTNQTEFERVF

Structure (SMILES) | tested on | test | setting | quantity | value
CNC(=O)c1cc(Oc2ccc(NC(=O)Nc3ccc(Cl)c(C(F)(F)F)c3)cc2)ccn1 | WI-38 | cell growth or viability, MTT | 25 µM, 24 h | viability | 29%
CC(C)N(c1ccc(C#N)cc1)c1ccc(NC(=O)CN(C)c2ccccc2N2CCCC2=O)c(F)c1 | HepG2 | cell growth or viability, ATP luminescence | 48 h | CC50 | > 40 µM
CSc1nc(O)n2nccc2n1 | K562 | cell growth or viability | – | IC50 | > 703 µM
CCN(CC(=O)Nc1ccc(Oc2ccc(C)cc2)cc1)c1ccccc1N1CCCC1=O | HepG2 | cell growth or viability, ATP luminescence | 48 h | CC50 | > 40 µM
Nc1ccn([C@@H]2O[C@H](CO)[C@@H](O)C2(F)F)c(=O)n1 | HEK293 | cell growth or viability, MTT | 2.5 µg/mL, 48 h | viability | 40.3%
Cc1cc([C@@H](C)Nc2ccccc2C(=O)O)c2nc(N3CCC(F)(F)CC3)c(C#N)c(=O)n2c1 | CDK9 (Homo sapiens, UniProt P50750) | binding, competition with immobilised ligand | 10 µM | remaining binding | 95%
CC(=O)c1nn(-c2ccc(C)cc2)/c(=N/N=C(\C)c2ccc(NC(=O)c3ccccc3)cc2)s1 | WI-38 | cell growth or viability, MTS | 1.25 µM, 24 h | viability | 4.38%
COc1cc(-c2cncc3c2CN(C)Cc2cc(N4CCNCC4)ccc2-3)cc(OC)c1OC | MARK4 (Homo sapiens, UniProt Q96L34) | enzyme activity, inhibitor | 1 µM | remaining activity | 105%
CC(C)N(c1ccc(Cl)c(F)c1)c1ccc(NC(=O)CN(C)c2ccccc2N2CCCC2=O)cn1 | HepG2 | cell growth or viability, ATP luminescence | 48 h | CC50 | > 40 µM
CCOC(=O)/C(=N\NC(N)=S)c1cccs1 | K562 | cell growth or viability | – | IC50 | 107 µM
C=CC(=O)N1CCC(COCC(=O)N2CCN(c3nc(-c4cnc(N)nc4C(F)F)nc(N4CCOC[C@@H]4C)n3)CC2)CC1 | NIM1K (Homo sapiens, UniProt Q8IY84) | binding, competition with immobilised ligand | 1 µM | remaining binding | 85%
CCCCC(=O)Nc1ccc(-c2ccc3ncn(CCC)c(=O)c3c2)cn1 | MAPKAPK5 (Homo sapiens, UniProt Q8IW41) | binding, competition with immobilised ligand | 0.5 µM | remaining binding | 72%
Cc1nc(O)n2ncc(Cl)c2n1 | K562 | cell growth or viability | – | IC50 | > 688 µM

A few entries again:
Structure (SMILES) | tested on | test | setting | quantity | value
CCOC(=O)/C(=N\NC(N)=S)c1cccs1 | K562 | cell growth or viability | – | IC50 | 107 µM
C=CC(=O)N1CCC(COCC(=O)N2CCN(c3nc(-c4cnc(N)nc4C(F)F)nc(N4CCOC[C@@H]4C)n3)CC2)CC1 | NIM1K (Homo sapiens, UniProt Q8IY84) | binding, competition with immobilised ligand | 1 µM | remaining binding | 85%
